Results of several laboratories.
Protocols differ between the studies behind these lines. ± marks the error that the study gave.
Sequence of UniProt P29320 (whole entry, looked up): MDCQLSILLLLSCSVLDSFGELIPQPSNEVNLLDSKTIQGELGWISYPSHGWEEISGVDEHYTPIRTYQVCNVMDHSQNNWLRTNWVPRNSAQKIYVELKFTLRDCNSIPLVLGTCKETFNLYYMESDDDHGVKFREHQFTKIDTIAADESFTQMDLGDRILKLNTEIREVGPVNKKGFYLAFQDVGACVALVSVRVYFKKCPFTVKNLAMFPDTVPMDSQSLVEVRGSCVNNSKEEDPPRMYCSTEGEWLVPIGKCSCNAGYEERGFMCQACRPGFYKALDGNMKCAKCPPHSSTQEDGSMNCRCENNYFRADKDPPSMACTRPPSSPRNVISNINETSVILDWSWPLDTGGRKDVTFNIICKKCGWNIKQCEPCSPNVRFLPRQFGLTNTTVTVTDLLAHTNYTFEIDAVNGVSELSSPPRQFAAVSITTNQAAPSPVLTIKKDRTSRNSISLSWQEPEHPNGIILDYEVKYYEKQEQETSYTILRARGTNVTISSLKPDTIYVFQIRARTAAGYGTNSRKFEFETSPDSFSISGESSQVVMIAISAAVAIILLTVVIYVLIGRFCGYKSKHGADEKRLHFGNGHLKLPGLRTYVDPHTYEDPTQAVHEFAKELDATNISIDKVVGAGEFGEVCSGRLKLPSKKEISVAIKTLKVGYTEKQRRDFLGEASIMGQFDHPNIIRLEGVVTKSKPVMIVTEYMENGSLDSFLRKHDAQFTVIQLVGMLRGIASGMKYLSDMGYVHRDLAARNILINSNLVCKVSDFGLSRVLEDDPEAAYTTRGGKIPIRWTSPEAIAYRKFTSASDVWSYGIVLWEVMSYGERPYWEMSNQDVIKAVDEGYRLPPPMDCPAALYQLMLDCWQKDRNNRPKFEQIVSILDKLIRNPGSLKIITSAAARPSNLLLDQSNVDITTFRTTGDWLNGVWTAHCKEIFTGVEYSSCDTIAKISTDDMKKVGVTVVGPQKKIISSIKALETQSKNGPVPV

| SMILES | target or system | assay | test system | setting | how to read | measurement | result |
| --- | --- | --- | --- | --- | --- | --- | --- |
| CC(C)[C@@H]1CC[C@@H](C)C[C@@H]1O |  | acute oral toxicity OECD | Swiss albino mice, serum | oral, 1000 mg/kg |  | aspartate aminotransferase | 56.3 ± 4.68 U/L |
| CC[C@H](C)[C@H](NC(=O)[C@H](Cc1ccccc1)NC(=O)[C@H](CCC(=O)O)NC(=O)[C@H](CCCNC(=N)N)NC(=O)[C@H](C)NC(=O)[C@H](C)NC(=O)[C@H](CCC(N)=O)NC(=O)[C@H](CCC(=O)O)NC(=O)[C@H](CCC(=O)O)NC(=O)[C@H](CC(C)C)NC(=O)[C@H](Cc1ccc(O)cc1)NC(=O)[C@H](CO)NC(=O)[C@H](CO)NC(=O)[C@@H](NC(=O)[C@H](CC(=O)O)NC(=O)[C@H](CO)NC(=O)[C@@H](NC(=O)[C@H](Cc1ccccc1)NC(=O)[C@@H](NC(=O)CNC(=O)[C@H](CCC(=O)O)NC(=O)[C@H](C)NC(=O)CCc1c[nH]cn1)[C@@H](C)O)[C@@H](C)O)C(C)C)C(=O)N[C@@H](C)C(=O)N[C@@H](Cc1c[nH]c2ccccc12)C(=O)N[C@@H](CC(C)C)C(=O)N[C@H](C(=O)N[C@@H](CCCNC(=N)N)C(=O)NCC(=O)N[C@@H](CCCNC(=N)N)C(=O)N[C@@H](CCCCNC(=O)COCCOCCNC(=O)COCCOCCNC(=O)CC[C@H](NC(=O)CCCCCCCCCCCCCCCCC(=O)O)C(=O)O)C(=O)NCC(=O)NCC(=O)N[C@@H](CO)C(=O)N[C@@H](CCCCNc1c(NCCCCCN(O)C(=O)CCC(=O)NCCCCCN(O)C(=O)CCC(=O)NCCCCCN(O)C(C)=O)c(=O)c1=O)C(=O)O)C(C)C [zirconium-89 labelled] |  |  | rat, knee | intravenous, 3 nmol/kg, 168 h |  | tissue uptake | 0.26 %ID/g |
| C[C@H]1CN(c2n[nH]c3nc(N[C@H]4CC[C@H](NS(=O)(=O)CCC(F)(F)F)CC4)ncc23)CCO1 | Ephrin type-A receptor 3 (EPHA3, Homo sapiens, UniProt P29320) | inhibitor, Kinobeads competition profiling |  | 20 µM | baseline: vehicle | relative abundance | 1.12 |
| CO[C@H]1C[C@@H]2CC[C@@H](C)[C@@](O)(O2)C(=O)C(=O)N2CCCC[C@H]2C(=O)O[C@H]([C@H](C)C[C@@H]2CC[C@@H](OC(=O)NCCOCCOCCOCCOCCOCCOCCOCCOCCC(=O)N3CCc4cc(Cn5nc(-c6ccc7oc(N)nc7c6)c6c(N)ncnc65)ccc4C3)[C@H](OC)C2)C[C@@H](O)[C@H](C)/C=C(\C)[C@@H](O)[C@@H](OC)C(=O)[C@H](C)C[C@H](C)/C=C/C=C/C=C/1C |  |  | patients with advanced solid tumours | intravenous, 8 mg weekly, grade 3 or higher |  | dysgeusia incidence | 0% |
| COc1cc2c(Oc3ccc4[nH]c(C)cc4c3F)ccnc2cc1OCC1(N)CC1 |  |  | paediatric refractory sarcoma patients | 10 mg |  | hand-foot syndrome incidence | 50% |
| O=C(Nc1ccccc1)C1CCN(C(=O)Oc2cccnc2)CC1 |  | psychotropic effects VAS | healthy women | 20 mg | baseline: pre-dose baseline, direction not given | change in Body score | 3.7 |
| CN1CC[C@@H](c2c(O)cc(O)c3c(=O)cc(-c4ccc(C(F)(F)F)cc4Cl)oc23)[C@@H]1CO |  | item: respiratory failure | B-cell malignancies or AML | oral, 50 mg, grade 3 to 4, continuous dosing |  | patients with adverse event | 0% |
| CNC(=O)c1c(N(C)N=O)ncn1C | Escherichia coli | plate incorporation | WP2uvrA pKM101, water | 50 µg/plate, without S9 |  | revertant colonies per plate | 94 ± 9 |
| COc1ncnn2ccc(-c3cnc4nc(C)n(Cc5nnc([C@@H](C)F)o5)c4c3)c12 |  |  | human | oral, dose not given, grade 4 |  | patients with malaise | 0% |
| Cc1cc(C)c(CNC(=O)c2cc(Cl)c3c(c2C)O[C@@](C)([C@H]2CC[C@H](N(C)C)CC2)O3)c(=O)[nH]1 |  |  | relapsed/refractory NHL patients | dose not given, trial, safety set, all TEAEs grade 5 |  | incidence of neutrophil count decreased | 0% |
| CC(C)C[C@@H]1NC(=O)[C@H](CC(C)C)NC(=O)[C@H](Cc2c[nH]c3ccccc23)NC(=O)[C@H](CO)NC(=O)[C@H](Cc2c[nH]c3ccccc23)NC(=O)[C@@H]2CCCN2C(=O)[C@H](CC(C)C)NC(=O)[C@H](Cc2c[nH]cn2)NC(=O)[C@@H]2CCCN2C(=O)[C@H](CC(N)=O)NC(=O)[C@H](C)NC(=O)[C@H](Cc2ccc(O)cc2)NC(=O)[C@H](CS)NC(=O)[C@H](CCCCNC(=O)CN2CCN(CC(=O)O)CCN(CC(=O)O)CCN(CC(=O)O)CC2)NC1=O [lutetium-177 labelled] |  | OLINDA dosimetry | BALB/c mice, spleen | 37 MBq, 7 days |  | total nuclear transformations | 49.1 MBq-s |
| C[C@]1(CO)Cc2ncn(-c3ccc(C#N)c(Cl)c3)c2C(=O)O1 |  |  | human, plasma | oral, 10 mg single dose, fasted |  | AUC(0-tz) adjusted geometric mean | 2.32 µM·h |
| CCc1ccc(CC/C=C/c2ccc3c(c2)C(=O)CC3)cc1 |  |  | Sprague-Dawley rat, male, serum | oral, 120 mg/kg/day, 14 days |  | creatinine | 20.7 µM |

A few entries again:
| SMILES | target or system | assay | test system | setting | how to read | measurement | result |
| --- | --- | --- | --- | --- | --- | --- | --- |
| O=C(Nc1ccccc1)C1CCN(C(=O)Oc2cccnc2)CC1 |  | psychotropic effects VAS | healthy women | 20 mg | baseline: pre-dose baseline, direction not given | change in Body score | 3.7 |
| CC[C@H](C)[C@H](NC(=O)[C@H](Cc1ccccc1)NC(=O)[C@H](CCC(=O)O)NC(=O)[C@H](CCCNC(=N)N)NC(=O)[C@H](C)NC(=O)[C@H](C)NC(=O)[C@H](CCC(N)=O)NC(=O)[C@H](CCC(=O)O)NC(=O)[C@H](CCC(=O)O)NC(=O)[C@H](CC(C)C)NC(=O)[C@H](Cc1ccc(O)cc1)NC(=O)[C@H](CO)NC(=O)[C@H](CO)NC(=O)[C@@H](NC(=O)[C@H](CC(=O)O)NC(=O)[C@H](CO)NC(=O)[C@@H](NC(=O)[C@H](Cc1ccccc1)NC(=O)[C@@H](NC(=O)CNC(=O)[C@H](CCC(=O)O)NC(=O)[C@H](C)NC(=O)CCc1c[nH]cn1)[C@@H](C)O)[C@@H](C)O)C(C)C)C(=O)N[C@@H](C)C(=O)N[C@@H](Cc1c[nH]c2ccccc12)C(=O)N[C@@H](CC(C)C)C(=O)N[C@H](C(=O)N[C@@H](CCCNC(=N)N)C(=O)NCC(=O)N[C@@H](CCCNC(=N)N)C(=O)N[C@@H](CCCCNC(=O)COCCOCCNC(=O)COCCOCCNC(=O)CC[C@H](NC(=O)CCCCCCCCCCCCCCCCC(=O)O)C(=O)O)C(=O)NCC(=O)NCC(=O)N[C@@H](CO)C(=O)N[C@@H](CCCCNc1c(NCCCCCN(O)C(=O)CCC(=O)NCCCCCN(O)C(=O)CCC(=O)NCCCCCN(O)C(C)=O)c(=O)c1=O)C(=O)O)C(C)C [zirconium-89 labelled] |  |  | rat, knee | intravenous, 3 nmol/kg, 168 h |  | tissue uptake | 0.26 %ID/g |
